Experimental data gathered from unrelated publications.
Compare with care: the assays were run in different laboratories. ± marks the error that the study gave.

With `CC(C)C[C@@H]1NC(=O)[C@H](Cc2ccc3ccccc3c2)NC(=O)[C@H](CCCNC(=N)N)NC(=O)[C@H](CCCNC(=N)N)NC(=O)[C@H](CCCNC(=N)N)NC(=O)[C@H](CCCNC(=N)N)NC(=O)[C@H](Cc2ccc3ccccc3c2)NC1=O` the HC50 was 170 µg/mL (human red blood cells; hemolysis).
`CNC(=O)C(NC(=O)C(O)(Cc1ccccc1)CN(Cc1ccc(Br)cc1)NC(=O)C(NC(=O)OC)C(C)(C)C)C(C)(C)C` (stereo not drawn) has an efflux ratio of 28 (Caco-2; pH 7.4; baseline: B-to-A over A-to-B).
`Nc1ncnc2c1c(-c1ccccn1)cn2[C@@H]1O[C@H](CO)[C@@H](O)[C@H]1O` gave an EC50 of 15.1 ± 4.1 µM (MRC-5 SV2; cytotoxicity, resazurin; medium with 5% FBS; 72 h).
The IC50 of `CN(C)C(=O)C1CN1S(=O)(=O)c1ccc2ccccc2c1` (stereo not drawn) is reported as 9.6 ± 0.2 µM (Balb/c 3T3 fibroblasts; cytotoxicity, neutral red uptake; DMEM with 5% FBS; 24 h).
For `CC1(C)CCCC(C)(C2CCC3(C)C2C(O)CC2C4(C)CCC(O)C(C)(C)C4C(OC(=O)c4cn(-c5ccc(Cl)cc5)nn4)CC23C)O1` (stereo not drawn), the IC50 was over 30 µM (Hep3B; cell growth or viability, MTT; 24 h).
For `CC(C)=CCc1c2c(c(O)c3c(=O)c(-c4ccc(O)cc4)coc13)CC(C(C)(C)O)O2` (stereo not drawn), the viability was 7.78% (RAW264.7; cell growth or viability, MTT; 100 µg/mL, 24 h).
With `CCCN(CC(=O)N(CCC)CC(=O)N(CCC)CC(=O)N(CCC)CC(=O)N(CC(=O)N(CCC)CC(=O)N(CCC)CC(=O)N(CCC)CC(=O)N(CCC)CC(=O)N(CC(=O)N(CCC)CC(=O)N(CCC)CC(=O)N(CCC)CC(=O)N(CCC)CC(=O)N(CC(N)=O)Cc1cn(CCCNC(=O)CCCOc2cccc(-c3nc4ccc(-c5nc6ccc(N7CCN(C)CC7)cc6[nH]5)cc4[nH]3)c2)nn1)Cc1cn(CCCNC(=O)CCCOc2cccc(-c3nc4ccc(-c5nc6ccc(N7CCN(C)CC7)cc6[nH]5)cc4[nH]3)c2)nn1)Cc1cn(CCCNC(=O)CCCOc2cccc(-c3nc4ccc(-c5nc6ccc(N7CCN(C)CC7)cc6[nH]5)cc4[nH]3)c2)nn1)C(=O)CNCc1cn(CCCNC(=O)CCCOc2cccc(-c3nc4ccc(-c5nc6ccc(N7CCN(C)CC7)cc6[nH]5)cc4[nH]3)c2)nn1` the non-fluorescent cells was 17% (C2C12; flow cytometry; 5 µM, 14 h).
Under “in vitro biliary clearance”, `[99Tc+].[C-]#[N+]CC(C)(C)OC.[C-]#[N+]CC(C)(C)OC.[C-]#[N+]CC(C)(C)OC.[C-]#[N+]CC(C)(C)OC.[C-]#[N+]CC(C)(C)OC.[C-]#[N+]CC(C)(C)OC` is recorded as 4.07 mL/min/kg (rat sandwich-cultured hepatocytes, noninfected; 10 min).
`CCCc1c(O)c(O)cc(C(=O)O)c1COC1OC(CO)C(O)C(O)C1O` (stereo not drawn) — result for cytotoxicity: “not toxic” (HeLa, SW480 and HCT-116; CCK-8; concentration not given, 12 h).
`c1cc2nc(-c3ccc(-c4nc5ccc(C6=NCCN6)cc5[nH]4)[se]3)[nH]c2cc1C1=NCCN1`: “maximum non-toxic concentration” over 10 µM (HEK293 cells; viability, resazurin reduction; 24 h, 10% fetal bovine serum; up to).
`CC1(C)CCCC(C)(C2CCC3(C)C2C(O)CC2C4(C)CCC(OC(=O)Nc5ccccc5)C(C)(C)C4C(O)CC23C)O1` (stereo not drawn) gave an IC50 of over 30 µM (Hep3B; cell growth or viability, MTT; 24 h).
With `CCCCCCc1ccc(S(=O)(=O)N2CC2C(=O)N2CCCC2)cc1` (stereo not drawn) the IC50 was 10 ± 2 µM (Balb/c 3T3 fibroblasts; cytotoxicity, neutral red uptake; DMEM with 5% FBS; 24 h).

Excerpt of the above:
`CCCc1c(O)c(O)cc(C(=O)O)c1COC1OC(CO)C(O)C(O)C1O` (stereo not drawn) — result for cytotoxicity: “not toxic” (HeLa, SW480 and HCT-116; CCK-8; concentration not given, 12 h).
With `CCCN(CC(=O)N(CCC)CC(=O)N(CCC)CC(=O)N(CCC)CC(=O)N(CC(=O)N(CCC)CC(=O)N(CCC)CC(=O)N(CCC)CC(=O)N(CCC)CC(=O)N(CC(=O)N(CCC)CC(=O)N(CCC)CC(=O)N(CCC)CC(=O)N(CCC)CC(=O)N(CC(N)=O)Cc1cn(CCCNC(=O)CCCOc2cccc(-c3nc4ccc(-c5nc6ccc(N7CCN(C)CC7)cc6[nH]5)cc4[nH]3)c2)nn1)Cc1cn(CCCNC(=O)CCCOc2cccc(-c3nc4ccc(-c5nc6ccc(N7CCN(C)CC7)cc6[nH]5)cc4[nH]3)c2)nn1)Cc1cn(CCCNC(=O)CCCOc2cccc(-c3nc4ccc(-c5nc6ccc(N7CCN(C)CC7)cc6[nH]5)cc4[nH]3)c2)nn1)C(=O)CNCc1cn(CCCNC(=O)CCCOc2cccc(-c3nc4ccc(-c5nc6ccc(N7CCN(C)CC7)cc6[nH]5)cc4[nH]3)c2)nn1` the non-fluorescent cells was 17% (C2C12; flow cytometry; 5 µM, 14 h).
